Measured values gathered from unrelated publications.
Every numbered part comes from another study and shows a few of its results, in no order.
Sequence of UniProt Q9H2K8 (whole entry, looked up): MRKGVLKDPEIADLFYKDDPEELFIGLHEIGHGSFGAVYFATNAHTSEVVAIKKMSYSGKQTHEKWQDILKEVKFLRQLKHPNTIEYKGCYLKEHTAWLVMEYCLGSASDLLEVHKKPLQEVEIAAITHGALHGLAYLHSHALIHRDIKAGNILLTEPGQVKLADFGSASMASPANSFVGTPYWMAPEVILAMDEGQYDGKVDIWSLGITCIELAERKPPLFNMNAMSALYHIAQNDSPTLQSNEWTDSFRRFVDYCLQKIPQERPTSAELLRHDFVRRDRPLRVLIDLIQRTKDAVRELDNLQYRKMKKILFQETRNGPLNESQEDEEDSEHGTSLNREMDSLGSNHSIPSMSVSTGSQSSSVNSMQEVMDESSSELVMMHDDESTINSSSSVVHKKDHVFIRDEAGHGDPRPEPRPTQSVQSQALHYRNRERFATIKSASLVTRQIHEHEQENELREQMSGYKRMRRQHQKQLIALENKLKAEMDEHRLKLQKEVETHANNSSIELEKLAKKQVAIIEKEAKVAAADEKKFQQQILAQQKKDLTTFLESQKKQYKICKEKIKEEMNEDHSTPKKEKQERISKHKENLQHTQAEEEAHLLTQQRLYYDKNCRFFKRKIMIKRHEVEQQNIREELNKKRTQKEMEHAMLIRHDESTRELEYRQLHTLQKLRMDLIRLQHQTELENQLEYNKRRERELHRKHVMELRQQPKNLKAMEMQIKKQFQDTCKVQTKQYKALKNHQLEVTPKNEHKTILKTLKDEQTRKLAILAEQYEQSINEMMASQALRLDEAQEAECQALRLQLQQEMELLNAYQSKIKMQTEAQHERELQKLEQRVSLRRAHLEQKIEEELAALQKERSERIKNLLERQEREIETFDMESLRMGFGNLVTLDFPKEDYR

Block 1 — method: aptamer microarray, sandwich; form: DNA with 2'F-ANA; matrix: in vitro; concentration: 200 nM; added: Cy3 exosite-II aptamer, 400 nM; direction: higher = stronger binding; sequence: GGTTGGTGTGGTTGG
Target: Prothrombin, mature alpha-thrombin (F2, Homo sapiens, UniProt P00734)
Setting: whole 15-mer aptamer, many near background
Modification	mean fluorescence intensity [a.u.]
2'F-ANA at 1 2 3 6 9 10 11 12 13 14 15	55.5
2'F-ANA at 4 8 9 10 13	93.7
2'F-ANA at 1 2 6 8 9 13 14	51.5
2'F-ANA at 5 6 8 10 12 15	48.2
2'F-ANA at 4 5 7 11 13	255
2'F-ANA at 2 3 4 5 6 7 8 10	83.2
2'F-ANA at 1 2 3 6 7 8 10 11	65.6
2'F-ANA at 1 2 4 5 6 7 9 10 12	293

Block 2 — method: protein binding microarray; form: double-stranded DNA, one strand shown; matrix: in vitro; concentration: not given; relative to: not given; direction: higher = stronger binding
Target: Histone acetyltransferase KAT6A, both winged helices, GST fusion (KAT6A, Homo sapiens, UniProt Q92794, residues 1-181)
Setting: 8-mer, flanks averaged, mean of 2 arrays, mostly near background
Target sequence (chain): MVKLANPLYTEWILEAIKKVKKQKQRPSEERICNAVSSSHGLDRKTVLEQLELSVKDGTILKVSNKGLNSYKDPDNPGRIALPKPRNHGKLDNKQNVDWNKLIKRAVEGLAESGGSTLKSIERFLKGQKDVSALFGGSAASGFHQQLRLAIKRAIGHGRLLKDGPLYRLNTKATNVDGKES
Sequence	E-score
GCAACCAA	-0.088
AACAGGTG	-0.196
ATACGGTC	0.173
AGTGAAAC	-0.104
CCAACCTA	-0.155
GACCAACC	0.0327
ATCACAGG	-0.0676
AATACTAC	-0.0277

Single results of other studies
Substance	tested on	assay	system	conditions	how to read	quantity	value
LCT (Homo sapiens, UniProt P09848)	PAXIP1 (Homo sapiens, UniProt Q6ZW49)	cross-linking MS	cell fractions	added: DMTMM	–	cross-linked residues	D1711 to M1
O=C(O)/C=C/c1cc(Br)c(Br)c(Br)c1Br	TAOK3 (Homo sapiens, UniProt Q9H2K8)	enzyme activity, inhibitor	–	0.5 µM	relative to: control	remaining activity	85.3%
SRSF1 (Homo sapiens, UniProt Q07955)	SRSF4 (Homo sapiens, UniProt Q08170)	cross-linking MS	cell fractions	added: DSSO	–	cross-linked residues	K165 to K95
ATP5F1D (Homo sapiens, UniProt P30049)	ATP5MK (Homo sapiens, UniProt Q96IX5)	cross-linking MS	–	hits only	–	interaction screen	cross-linked
USO1 (Homo sapiens, UniProt O60763)	DNAH2 (Homo sapiens, UniProt Q9P225)	cross-linking MS	cell fractions	added: DHSO	–	cross-linked residues	D783 to D3109

Excerpt of the above (block 1):
Modification	mean fluorescence intensity [a.u.]
2'F-ANA at 1 2 6 8 9 13 14	51.5
2'F-ANA at 2 3 4 5 6 7 8 10	83.2
